Published values from different studies.
Every numbered part comes from another study and shows a few of its results, in no order. Positions count from the first letter of the parent shown.

Set 1 — target: CCNE2, cyclin fold, Cln2 fusion (human); technique: yeast growth competition, sequencing; medium: yeast; notes: strong parent motif; baseline: not given; reading: higher = stronger binding
Starting sequence: viral docking peptide; KGVKRKLFAEDSS; partner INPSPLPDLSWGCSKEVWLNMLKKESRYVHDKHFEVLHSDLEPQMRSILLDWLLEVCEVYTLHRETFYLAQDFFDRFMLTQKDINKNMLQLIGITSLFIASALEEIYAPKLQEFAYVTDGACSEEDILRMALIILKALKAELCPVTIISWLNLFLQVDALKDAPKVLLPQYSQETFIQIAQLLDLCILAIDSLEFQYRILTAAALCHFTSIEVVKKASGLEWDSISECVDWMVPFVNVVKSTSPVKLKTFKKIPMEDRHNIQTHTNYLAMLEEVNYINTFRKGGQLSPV
`KGDKRKLFAEDSS [V3D]` — result for “normalised enrichment score”: -0.246.
`KGVWRKLFAEDSS [K4W]`: “normalised enrichment score” 0.565.
`KGVKRKLFAERSS [D11R]`: “normalised enrichment score” 4.78.
Under “normalised enrichment score”, `KGVKFKLFAEDSS [R5F]` is recorded as 0.686.
`KGVKRNLFAEDSS [K6N]` — result for “normalised enrichment score”: 3.02.
`KGVKRKLFAEHSS [D11H]`: “normalised enrichment score” 6.12.
`KGVKRKLQAEDSS [F8Q]`: “normalised enrichment score” 0.374.

Set 2 — technique: aptamer microarray, sandwich; form: DNA with 2'F-ANA; medium: in vitro; concentration: 200 nM; with: Cy3 exosite-II aptamer, 400 nM; reading: higher = stronger binding; oligonucleotide: GGTTGGTGTGGTTGG
Target: Prothrombin, mature alpha-thrombin (F2, Homo sapiens, UniProt P00734)
Notes: whole 15-mer aptamer, many near background
Under “mean fluorescence intensity”, `2'F-ANA at 2 6 7 11 13` is recorded as 273 a.u.
`2'F-ANA at 2 5 6 9 12 15`: “mean fluorescence intensity” 140 a.u.
For `2'F-ANA at 4 6 7 8 10 11 14`, “mean fluorescence intensity” read 76 a.u.
For `2'F-ANA at 1 7 8 9 11 15`, “mean fluorescence intensity” read 181 a.u.
`2'F-ANA at 1 2 3 4 6 7 11 12 13 15`: “mean fluorescence intensity” 205 a.u.
`2'F-ANA at 1 2 3 6 8 9 10 12 13 14`: “mean fluorescence intensity” 54.4 a.u.
For `2'F-ANA at 2 3 4 5 12 14 15`, “mean fluorescence intensity” read 53.7 a.u.
For `2'F-ANA at 2 4 5 10 12`, “mean fluorescence intensity” read 49.8 a.u.

Set 3 — target: UBE2D2 UBC core domain (UniProt P62837); technique: yeast two-hybrid; medium: yeast; notes: mostly zero background; baseline: not given; reading: higher = stronger interaction
UniProt P62837, sequence (whole entry, looked up): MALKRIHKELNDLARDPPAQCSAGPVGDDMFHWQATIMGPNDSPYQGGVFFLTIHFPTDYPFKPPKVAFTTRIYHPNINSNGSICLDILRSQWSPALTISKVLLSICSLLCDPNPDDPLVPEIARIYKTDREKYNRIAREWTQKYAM
B1: RNF19A RING domain (UniProt Q9NV58); chain ISKQIGDFIECPLCLLRHSKDRFPDIMTCHHRSCVDCLRQYLRIEISESRVNISCPECTERFNPHDIR
B2: DZIP3 RING domain (UniProt Q86Y13); chain PDEEEEEEEPCVICHENLSPENLSVLPCAHKFHAQCIRPWLMQQGTCPTCRLHVLLPEEFP
B3: MDM4 RING domain (UniProt O15151); chain MEDCQNLLKPCSLCEKRPRDGNIIHGRTGHLVTCFHCARRLKKAGASCPICKKEIQLVIKVF
B4: MAP3K1 RING domain (UniProt Q13233); chain NSIKDEEEQMCPICLLGMLDEESLTVCEDGCRNKLHHHCMSIWAEECRRNREPLICPLCRSKWRSHDFYS
B5: SYTL4 RING domain (UniProt Q96C24); chain RGSQHYSDRTCARCQESLGRLSPKTNTCRGCNHLVCRDCRIQESNGTWRCKVCAKEIELKKAT
Under “lacZ reporter activity”, `B1 (RNF19A RING domain)` is recorded as 0.
For `GSRLQEINDVCAICYHEFTTSARITPCNHYFHALCLRKWLYIQDTCPMCHQKVYIEDDIK (RNF139 RING domain (UniProt Q8WU17))`, “lacZ reporter activity” read 0.
`B2 (DZIP3 RING domain)` — result for “lacZ reporter activity”: 0.
For `B3 (MDM4 RING domain)`, “lacZ reporter activity” read 0.
For `B4 (MAP3K1 RING domain)`, “lacZ reporter activity” read 13700.
Under “lacZ reporter activity”, `B5 (SYTL4 RING domain)` is recorded as 0.

Set 4 — technique: protein binding microarray; form: double-stranded DNA, one strand shown; medium: in vitro; concentration: not given; baseline: not given; reading: higher = stronger binding
Target: Histone acetyltransferase KAT6A, both winged helices, GST fusion (KAT6A, Homo sapiens, UniProt Q92794, residues 1-181)
Notes: 8-mer, flanks averaged, mean of 2 arrays, mostly near background
Residues (chain): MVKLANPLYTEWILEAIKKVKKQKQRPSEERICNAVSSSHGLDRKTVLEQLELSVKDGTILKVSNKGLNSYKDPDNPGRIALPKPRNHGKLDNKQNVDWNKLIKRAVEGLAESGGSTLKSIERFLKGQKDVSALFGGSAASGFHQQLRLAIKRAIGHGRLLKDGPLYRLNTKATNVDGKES
The E-score of `ACCGGGAG` is reported as 0.197.
`CCAATGGA` gave an E-score of -0.0934.
`GCTATACA` gave an E-score of 0.00987.
`AATATTGC` has an E-score of -0.00793.
With `CGCGATCA` the E-score was 0.189.
For `CCCTTTGC`, the E-score was 0.0198.
`ATGCTATG` gave an E-score of -0.193.
`CTTTTGCC` gave an E-score of -0.00038.

A few entries again (set 1):
`KGVKRNLFAEDSS [K6N]` — result for “normalised enrichment score”: 3.02.
`KGVWRKLFAEDSS [K4W]`: “normalised enrichment score” 0.565.
Under “normalised enrichment score”, `KGVKFKLFAEDSS [R5F]` is recorded as 0.686.
`KGDKRKLFAEDSS [V3D]` — result for “normalised enrichment score”: -0.246.
